Results gathered from unrelated publications.
Every numbered part comes from another study and shows a few of its results, in no order.
Chain of UniProt P00519 (whole entry, looked up): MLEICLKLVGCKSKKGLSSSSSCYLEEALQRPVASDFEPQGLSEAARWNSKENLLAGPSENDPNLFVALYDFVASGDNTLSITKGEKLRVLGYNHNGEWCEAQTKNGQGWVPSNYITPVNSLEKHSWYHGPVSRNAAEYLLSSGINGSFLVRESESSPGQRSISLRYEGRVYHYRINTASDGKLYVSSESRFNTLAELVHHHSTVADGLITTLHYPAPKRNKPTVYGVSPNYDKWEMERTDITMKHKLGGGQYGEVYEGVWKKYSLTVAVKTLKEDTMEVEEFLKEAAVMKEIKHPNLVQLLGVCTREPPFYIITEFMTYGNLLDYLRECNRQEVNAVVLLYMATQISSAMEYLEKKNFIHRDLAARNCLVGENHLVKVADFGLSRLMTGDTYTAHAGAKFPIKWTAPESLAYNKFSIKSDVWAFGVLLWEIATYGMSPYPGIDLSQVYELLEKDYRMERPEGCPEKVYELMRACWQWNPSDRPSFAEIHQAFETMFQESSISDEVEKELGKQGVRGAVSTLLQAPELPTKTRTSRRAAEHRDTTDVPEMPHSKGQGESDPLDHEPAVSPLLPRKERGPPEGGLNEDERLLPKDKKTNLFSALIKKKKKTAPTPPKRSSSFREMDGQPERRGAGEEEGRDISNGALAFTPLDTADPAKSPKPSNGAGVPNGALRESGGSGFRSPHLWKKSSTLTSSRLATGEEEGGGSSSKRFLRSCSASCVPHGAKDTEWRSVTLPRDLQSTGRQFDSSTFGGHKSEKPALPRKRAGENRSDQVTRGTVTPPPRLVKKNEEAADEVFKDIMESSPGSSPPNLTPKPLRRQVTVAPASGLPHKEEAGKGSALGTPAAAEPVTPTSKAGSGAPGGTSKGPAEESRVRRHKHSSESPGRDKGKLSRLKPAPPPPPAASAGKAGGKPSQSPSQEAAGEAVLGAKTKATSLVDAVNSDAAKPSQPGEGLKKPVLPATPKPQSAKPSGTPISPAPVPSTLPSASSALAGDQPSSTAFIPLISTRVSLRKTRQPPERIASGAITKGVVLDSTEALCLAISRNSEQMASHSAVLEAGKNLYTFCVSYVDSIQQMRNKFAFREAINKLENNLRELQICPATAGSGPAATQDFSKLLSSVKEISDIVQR
Chain of UniProt P29320 (whole entry, looked up): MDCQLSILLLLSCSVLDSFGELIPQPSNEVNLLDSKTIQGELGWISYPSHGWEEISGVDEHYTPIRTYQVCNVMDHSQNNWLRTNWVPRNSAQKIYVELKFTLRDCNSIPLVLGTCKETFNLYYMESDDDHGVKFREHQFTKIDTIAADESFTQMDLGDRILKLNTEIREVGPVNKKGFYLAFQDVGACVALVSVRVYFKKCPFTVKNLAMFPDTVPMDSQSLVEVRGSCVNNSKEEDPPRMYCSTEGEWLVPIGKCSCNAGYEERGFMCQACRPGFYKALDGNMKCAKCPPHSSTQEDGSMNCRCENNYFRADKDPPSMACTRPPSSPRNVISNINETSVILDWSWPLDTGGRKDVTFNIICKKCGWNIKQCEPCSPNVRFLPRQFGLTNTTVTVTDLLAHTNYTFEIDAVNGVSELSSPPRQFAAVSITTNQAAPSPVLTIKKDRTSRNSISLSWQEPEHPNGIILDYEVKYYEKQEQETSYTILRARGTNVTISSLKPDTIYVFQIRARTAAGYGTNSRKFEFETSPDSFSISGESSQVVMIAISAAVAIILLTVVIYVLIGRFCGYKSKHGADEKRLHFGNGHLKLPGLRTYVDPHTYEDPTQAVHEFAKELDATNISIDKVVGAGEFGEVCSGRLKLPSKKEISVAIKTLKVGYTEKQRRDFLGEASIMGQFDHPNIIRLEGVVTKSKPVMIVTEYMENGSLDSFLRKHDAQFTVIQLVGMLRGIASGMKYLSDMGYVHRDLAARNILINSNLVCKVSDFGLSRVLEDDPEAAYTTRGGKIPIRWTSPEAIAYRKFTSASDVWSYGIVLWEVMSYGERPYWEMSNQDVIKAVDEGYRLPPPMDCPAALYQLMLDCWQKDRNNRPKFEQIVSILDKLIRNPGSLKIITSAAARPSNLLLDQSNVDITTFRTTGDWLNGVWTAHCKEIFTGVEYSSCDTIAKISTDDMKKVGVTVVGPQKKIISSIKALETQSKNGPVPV
Chain of UniProt Q99558 (whole entry, looked up): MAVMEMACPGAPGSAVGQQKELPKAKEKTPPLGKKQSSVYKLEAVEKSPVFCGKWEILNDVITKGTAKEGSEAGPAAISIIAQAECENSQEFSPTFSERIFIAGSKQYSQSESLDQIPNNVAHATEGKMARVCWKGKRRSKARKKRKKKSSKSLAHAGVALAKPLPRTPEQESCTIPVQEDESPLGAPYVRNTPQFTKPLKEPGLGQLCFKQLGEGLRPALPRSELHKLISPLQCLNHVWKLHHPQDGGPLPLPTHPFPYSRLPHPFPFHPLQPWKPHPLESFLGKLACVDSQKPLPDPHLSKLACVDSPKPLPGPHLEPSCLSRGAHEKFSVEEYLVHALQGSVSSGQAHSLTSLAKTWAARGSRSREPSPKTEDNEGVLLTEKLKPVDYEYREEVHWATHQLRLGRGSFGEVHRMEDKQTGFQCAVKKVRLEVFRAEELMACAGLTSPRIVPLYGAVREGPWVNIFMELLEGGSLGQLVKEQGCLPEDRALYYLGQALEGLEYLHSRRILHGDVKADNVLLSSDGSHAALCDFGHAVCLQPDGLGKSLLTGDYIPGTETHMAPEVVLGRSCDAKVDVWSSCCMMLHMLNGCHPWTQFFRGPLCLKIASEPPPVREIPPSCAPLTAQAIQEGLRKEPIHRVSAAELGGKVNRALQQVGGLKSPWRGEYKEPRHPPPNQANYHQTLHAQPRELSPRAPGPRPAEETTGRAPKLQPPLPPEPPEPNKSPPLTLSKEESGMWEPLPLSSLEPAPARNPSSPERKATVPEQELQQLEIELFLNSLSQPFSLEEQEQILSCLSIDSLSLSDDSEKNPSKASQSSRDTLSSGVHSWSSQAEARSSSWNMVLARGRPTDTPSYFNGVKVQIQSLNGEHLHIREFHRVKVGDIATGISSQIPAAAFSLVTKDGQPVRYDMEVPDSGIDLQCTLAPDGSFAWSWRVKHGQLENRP
Chain of UniProt Q8TD08 (whole entry, looked up): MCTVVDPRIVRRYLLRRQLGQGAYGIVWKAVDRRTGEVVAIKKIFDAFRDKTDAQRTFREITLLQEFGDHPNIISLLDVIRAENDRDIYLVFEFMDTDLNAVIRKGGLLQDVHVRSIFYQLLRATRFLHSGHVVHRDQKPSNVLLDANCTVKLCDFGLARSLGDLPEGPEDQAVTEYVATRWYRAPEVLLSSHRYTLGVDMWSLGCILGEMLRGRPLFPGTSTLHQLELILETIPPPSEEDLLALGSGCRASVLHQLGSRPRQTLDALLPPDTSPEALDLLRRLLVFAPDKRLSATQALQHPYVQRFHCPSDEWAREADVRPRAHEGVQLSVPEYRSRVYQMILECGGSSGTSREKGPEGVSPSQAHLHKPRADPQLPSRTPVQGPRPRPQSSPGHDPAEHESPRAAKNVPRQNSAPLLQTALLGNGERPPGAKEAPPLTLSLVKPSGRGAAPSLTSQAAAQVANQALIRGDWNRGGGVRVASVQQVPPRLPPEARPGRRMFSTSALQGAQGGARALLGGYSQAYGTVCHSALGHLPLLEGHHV
Chain of UniProt O94804 (whole entry, looked up): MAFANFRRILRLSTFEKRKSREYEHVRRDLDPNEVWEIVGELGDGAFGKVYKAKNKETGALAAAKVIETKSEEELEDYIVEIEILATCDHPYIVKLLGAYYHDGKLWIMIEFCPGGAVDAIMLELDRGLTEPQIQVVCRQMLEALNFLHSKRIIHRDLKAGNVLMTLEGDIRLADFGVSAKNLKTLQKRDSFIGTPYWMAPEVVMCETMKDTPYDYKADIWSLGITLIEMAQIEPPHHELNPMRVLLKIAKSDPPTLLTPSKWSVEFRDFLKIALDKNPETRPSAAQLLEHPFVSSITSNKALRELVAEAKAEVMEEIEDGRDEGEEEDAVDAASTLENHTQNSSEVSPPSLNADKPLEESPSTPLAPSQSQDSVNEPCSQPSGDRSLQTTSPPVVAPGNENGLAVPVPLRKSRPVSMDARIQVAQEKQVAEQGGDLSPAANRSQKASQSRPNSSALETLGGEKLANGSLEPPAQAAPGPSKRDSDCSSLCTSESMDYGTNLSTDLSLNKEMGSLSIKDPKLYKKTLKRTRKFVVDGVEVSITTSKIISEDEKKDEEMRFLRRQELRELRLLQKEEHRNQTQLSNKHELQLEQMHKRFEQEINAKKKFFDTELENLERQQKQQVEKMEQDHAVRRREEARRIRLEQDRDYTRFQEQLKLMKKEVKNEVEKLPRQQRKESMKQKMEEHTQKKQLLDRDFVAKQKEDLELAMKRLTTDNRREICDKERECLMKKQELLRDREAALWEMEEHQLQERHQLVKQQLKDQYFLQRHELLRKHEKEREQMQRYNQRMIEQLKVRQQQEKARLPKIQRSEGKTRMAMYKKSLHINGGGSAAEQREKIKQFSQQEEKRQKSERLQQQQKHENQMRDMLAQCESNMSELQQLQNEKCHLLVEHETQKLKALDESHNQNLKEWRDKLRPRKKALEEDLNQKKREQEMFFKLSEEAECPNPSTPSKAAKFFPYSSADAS

Set 1
Target: Calcium/calmodulin-dependent protein kinase type II subunit alpha (CAMK2A, Homo sapiens, UniProt Q9UQM7)
Chain of UniProt Q9UQM7 (whole entry, looked up): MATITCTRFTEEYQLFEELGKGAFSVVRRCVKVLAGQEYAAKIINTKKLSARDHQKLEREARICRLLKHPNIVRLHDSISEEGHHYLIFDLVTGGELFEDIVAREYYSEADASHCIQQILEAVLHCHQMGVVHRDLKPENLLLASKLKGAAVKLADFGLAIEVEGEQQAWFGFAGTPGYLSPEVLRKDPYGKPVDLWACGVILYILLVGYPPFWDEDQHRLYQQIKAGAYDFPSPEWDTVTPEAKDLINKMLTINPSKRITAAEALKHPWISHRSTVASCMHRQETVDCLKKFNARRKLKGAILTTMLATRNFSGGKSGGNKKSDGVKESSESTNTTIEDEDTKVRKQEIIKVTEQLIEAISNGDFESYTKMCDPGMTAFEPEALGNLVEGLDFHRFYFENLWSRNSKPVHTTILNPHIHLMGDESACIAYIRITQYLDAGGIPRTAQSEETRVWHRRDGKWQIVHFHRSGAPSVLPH
Effect on: enzyme activity
Mode: inhibitor
Tested at: 10 µM
| SMILES | inhibition [%] |
| --- | --- |
| CC1(C)O[C@@H]2[C@@H](CO[C@@]3(COS(N)(=O)=O)OC(C)(C)O[C@@H]23)O1 | -1 |
| CCCOC(=O)c1ccc(O)cc1 | -47 |
| O=c1cc(-c2ccc(O)cc2)oc2cc(O)cc(O)c12 | -11 |
| CN[C@@H]1CCc2[nH]c3ccc(C(N)=O)cc3c2C1 | -3 |
| COC(=O)C1=CO[C@@H](O[C@@H]2O[C@H](CO)[C@@H](O)[C@H](O)[C@H]2O)[C@H]2[C@@H]1C(=O)C[C@@H]2C | -19 |
| COc1ccc([C@@H]2CC(=O)c3c(O)cc(O[C@@H]4O[C@H](CO[C@@H]5O[C@@H](C)[C@H](O)[C@@H](O)[C@H]5O)[C@@H](O)[C@H](O)[C@H]4O)cc3O2)cc1OC | -11 |
| CCCCCCCCCCCCCCCCCCCC(=O)OC | 6 |
| O=C1c2c(O)cc(O)cc2O[C@H](c2ccc(O)c(O)c2)[C@H]1O | -20 |
| O=C(/C=C/c1ccc(O)c(O)c1)O[C@@H]1C[C@](OC(=O)/C=C/c2ccc(O)c(O)c2)(C(=O)O)C[C@@H](O)[C@H]1O | 0 |
| C=C1/C(=C\C=C2/CCC[C@]3(C)[C@@H]([C@H](C)CCCC(C)(C)O)CC[C@@H]23)C[C@@H](O)[C@@H](OCCCO)[C@@H]1O | -2 |

Set 2
SMILES: CC(C)CN(C)c1nc(N)c(C(=O)N=C(N)N)nc1Cl
Effect on: β-arrestin recruitment
Mode: agonist
Technique: PRESTO-Tango
Tested at: 10 µM
Baseline: untreated
| target | fold over basal |
| --- | --- |
| G-protein coupled receptor 62 (GPR62, Homo sapiens, UniProt Q9BZJ7) | 1.24 |
| GPBAR1 (Homo sapiens, UniProt Q8TDU6) | 1.11 fold |
| Adhesion G-protein coupled receptor G5 (ADGRG5, Homo sapiens, UniProt Q8IZF4) | 0.52 |
| GIPR (Homo sapiens, UniProt P48546) | 0.48 fold |
| CCKAR (Homo sapiens, UniProt P32238) | 0.82 |
| Probable G-protein coupled receptor 25 (GPR25, Homo sapiens, UniProt O00155) | 0.94 |
| DRD1 (Homo sapiens, UniProt P21728) | 0.53 |
| HTR5A (Homo sapiens, UniProt P47898) | 1.2 |
| HTR2A (Homo sapiens, UniProt P28223) | 0.26 |
| G-protein coupled receptor 15 (Homo sapiens, UniProt P49685) | 0.76 |

Set 3
Target: Diamine acetyltransferase 1 (Homo sapiens, UniProt P21673)
Mode: inhibitor
Tested at: 10 µM
Baseline: control
Construct (P21673 1-171): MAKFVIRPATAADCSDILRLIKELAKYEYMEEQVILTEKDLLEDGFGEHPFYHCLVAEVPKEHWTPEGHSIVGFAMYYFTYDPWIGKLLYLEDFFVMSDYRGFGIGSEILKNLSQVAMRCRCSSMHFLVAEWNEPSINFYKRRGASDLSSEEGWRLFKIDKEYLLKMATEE
| SMILES | remaining activity [%] |
| --- | --- |
| O=C(O)/C=C/C(=O)O | 95 |
| OC1c2ccccc2-c2ccccc21 | 89.4 |
| COc1c(O)cc2oc3cc(O)c(CC=C(C)C)c(O)c3c(=O)c2c1CC=C(C)C | 104 |
| O=C(O)c1ccccc1O | 103 |
| COc1ccc(-c2oc3cc(OC)cc(O)c3c(=O)c2O)cc1 | 103 |
| CC1(C)[C@@H](O)CC[C@]2(C)[C@H]3C(=O)C=C4[C@@H]5C[C@@](C)(C(=O)O)CC[C@]5(C)CC[C@@]4(C)[C@]3(C)CC[C@@H]12 | 89.4 |
| CCCCCCCC(=O)OCC | 100 |
| CCCCCCCCCCCC(=O)OC | 76.7 |
| C=C[C@H]1[C@H](O[C@@H]2O[C@H](CO)[C@@H](O)[C@H](O)[C@H]2O)OC=C(C(=O)O)[C@H]1CC(=O)O | 92.6 |
| C[C@@H]1O[C@@H](O[C@H]2C(=O)c3c(O)cc(O)cc3O[C@@H]2c2ccc(O)c(O)c2)[C@H](O)[C@H](O)[C@H]1O | 84.8 |
| CC(/C=C/C=C(\C)C(=O)O)=C\C=C\C=C(C)\C=C\C=C(/C)C(=O)O | 113 |
| CC(=O)O[C@H]1CC[C@]2(C)[C@H]3CC=C4[C@@H]5CC(C)(C)CC[C@]5(C)CC[C@@]4(C)[C@]3(C)CC[C@H]2C1(C)C | 104 |
| CCCCCCCC/C=C\CCCCCCCCC(=O)O | 101 |
| O=c1[nH]cnc2c1ncn2[C@@H]1O[C@H](CO)[C@@H](O)[C@H]1O | 85.7 |

Set 4
Compound: C[C@@H]1CN(c2cc(-c3n[nH]c4ccc(OC5(C)CC5)cc34)ncn2)C[C@H](C)O1
Effect on: cell-free assay
Technique: competition with immobilised ligand
Tested at: 0.1 µM
| target | remaining binding [%] |
| --- | --- |
| CLK4 (Homo sapiens, UniProt Q9HAZ1) | 87 |
| MAP2K1 (Homo sapiens, UniProt Q02750) | 88 |
| HUNK (Homo sapiens, UniProt P57058) | 79 |
| VRK2 (Homo sapiens, UniProt Q86Y07) | 65 |
| TGFBR1 (Homo sapiens, UniProt P36897) | 100 |
| LCK (Homo sapiens, UniProt P06239) | 100 |
| Ribosomal protein S6 kinase alpha-6, N-terminal kinase domain (RPS6KA6, Homo sapiens, UniProt Q9UK32) | 77 |
| EGFR (Homo sapiens, UniProt P00533, del747-750/T751S) | 53 |
| LIM domain kinase 2 (LIMK2, Homo sapiens, UniProt P53671) | 91 |
| MYLK4 (Homo sapiens, UniProt Q86YV6) | 100 |
| EPHA3 (Homo sapiens, UniProt P29320) | 93 |
| MAPK15 (Homo sapiens, UniProt Q8TD08) | 81 |
| MAP3K14 (Homo sapiens, UniProt Q99558) | 64 |
| RAF1 (Homo sapiens, UniProt P04049) | 100 |
| Tyrosine-protein kinase ABL1, non-phosphorylated (ABL1, Homo sapiens, UniProt P00519) | 87 |
| CDK4 (Homo sapiens, UniProt P11802) | 71 |
| TAOK2 (Homo sapiens, UniProt Q9UL54) | 73 |
| CDK11B (Homo sapiens, UniProt P21127) | 88 |
| STK10 (Homo sapiens, UniProt O94804) | 83 |
| PIK3CA (Homo sapiens, UniProt P42336, H1047Y) | 76 |
| RET (Homo sapiens, UniProt P07949, V804L) | 98 |
| EPHB3 (Homo sapiens, UniProt P54753) | 98 |
| EGFR (Homo sapiens, UniProt P00533, L858R/T790M) | 84 |
| PIM3 (Homo sapiens, UniProt Q86V86) | 100 |
| CDC42BPA (Homo sapiens, UniProt Q5VT25) | 90 |

For quick reference, copied from above (set 3):
| SMILES | remaining activity [%] |
| --- | --- |
| COc1c(O)cc2oc3cc(O)c(CC=C(C)C)c(O)c3c(=O)c2c1CC=C(C)C | 104 |
| OC1c2ccccc2-c2ccccc21 | 89.4 |
| CC(/C=C/C=C(\C)C(=O)O)=C\C=C\C=C(C)\C=C\C=C(/C)C(=O)O | 113 |
